# Measurements collected from several papers.
# Each line is one published result; not all experiments were run side by side. ± gives the spread as reported.
# Organism: SARS-CoV-2
SMILES,assay,test system,setting,EC50
Cc1ccc(CCCO)c(NCc2ccc3nc(NCCCN4CCOCC4)n(Cc4nc(C)ccc4O)c3c2)c1,"viral replication, GFP plate reader screen",BetaCov/Belgium/GHB-03021/2020,cell-based,> 20000 nM
Nc1nc(N)c2nnn([C@@H]3C(F)=C(CO)[C@@H](O)[C@H]3O)c2n1,"viral replication, spike protein immunostaining",Vero,48 h,> 100000 nM
O=C[C@H](C[C@@H]1CCNC1=O)NC(=O)[C@H](CC1CCCCC1)NC(=O)c1cc2ccccc2[nH]1,viral replication,"Vero E6, 2019-nCoV-WIV04",30% human serum,2570 nM
CC(C)(C)NCc1ccc(Nc2ccnc3cc(Cl)ccc23)cc1O,viral replication,"293T-ACE2, USA-WA1/2020",24 h,290 nM
O=[N+]([O-])c1ccc(O)c2ncccc12,viral replication,"human epithelial cells, ancestral",24 h,~5000 nM
CCC(C)NC(=O)c1ccccc1NC(=O)c1cccc(S(=O)(=O)Nc2ccccc2)c1 (stereo not drawn),"plaque formation, plaque reduction",Vero E6,72 h,9400 ± 4500 nM
CC(C)CC(NC(=O)OCc1ccccc1)C(=O)NC(C(=O)NCC(=O)C=[N+]=[N-])C(C)C (stereo not drawn),viral replication,"293T-ACE2, USA-WA1/2020",24 h,1.1 nM
CC(C)(C)[C@H](NC(=O)C(F)(F)F)C(=O)N1C[C@H]2[C@@H]([C@H]1C(=O)N[C@H](C#N)C[C@@H]1CCNC1=O)C2(C)C,nucleocapsid staining,"Caco-2, Omicron BQ.1.1",,400 ± 100 nM
C=C1CC[C@@H]2[C@](C)(CO)[C@H](O)CC[C@@]2(C)[C@@H]1C/C=C1/C(=O)OC[C@H]1O,plaque reduction,"Vero E6, B.3",72 h,1400 nM
CNc1ncnc2c1nnn2[C@@H]1C(F)=C(CO)[C@@H](O)[C@H]1O,"viral replication, spike protein immunostaining",Vero,48 h,> 100000 nM
CCNC(=O)[C@@H](NC(=O)c1ccccc1NC(=O)c1ccc(OC)cc1)C(C)C,"plaque formation, plaque reduction",Vero E6,72 h,> 50000 nM
COc1ccc2cc1Oc1ccc(cc1)C[C@H]1c3cc(c(OC)cc3CCN1C)Oc1c(OC)c(OC)cc3c1[C@H](C2)N(C)CC3,viral replication,"293T-ACE2, USA-WA1/2020",24 h,560 nM
CCOC(=O)C1=C(CN2CCC(NC(=O)OC(C)(C)C)CC2)NC(=O)NC1c1ccccc1 (stereo not drawn),"plaque formation, plaque reduction",Vero E6,72 h,> 50000 nM
CN1CCC(CN2c3ccccc3Sc3ccccc32)C1 (stereo not drawn),"viral replication, GFP plate reader screen",,cell-based,16200 nM
CC(C)(C)[C@H](NC(=O)C(F)(F)F)C(=O)N1C[C@H]2[C@@H]([C@H]1C(=O)N[C@H](C#N)C[C@@H]1CCNC1=O)C2(C)C,"viral replication, cell-based",Washington,,80 ± 70 nM
CC(C)C[C@H](NC(=O)c1cc2c(F)ccc(F)c2[nH]1)C(=O)N[C@@H](C[C@@H]1CCNC1=O)C(=O)c1nc2cc(F)ccc2s1,"viral replication, RT-qPCR","VeroE6, WK-521",,2700 ± 150 nM
CCOC(=O)C(NC(=O)COc1ccccc1)(Nc1nc2ccccc2s1)C(F)(F)F (stereo not drawn),"plaque formation, plaque reduction",Vero E6,72 h,23100 ± 5500 nM
CCN(CC)CCNC(=O)c1c(C)[nH]c(/C=C2\C(=O)Nc3ccc(F)cc32)c1C,viral replication,"Vero E6, USA-WA1/2020",,2400 nM
O[C@](Cn1cncn1)(Cn1cnc(/C=C\c2ccc(OCC(F)(F)C(F)F)cc2)n1)c1ccc(F)cc1F,"viral replication, GFP plate reader screen",BetaCov/Belgium/GHB-03021/2020,cell-based,> 100000 nM
CCOc1ccccc1NC(=O)C(=O)NCC(c1cccnc1)N1CCN(c2ccccc2)CC1 (stereo not drawn),"plaque formation, plaque reduction",Vero E6,72 h,12500 ± 2100 nM
CCC(CC)COC(=O)[C@H](C)N[P@](=O)(OC[C@H]1O[C@@](C#N)(c2ccc3c(N)ncnn23)[C@H](O)[C@@H]1O)Oc1ccccc1,viral replication,Vero E6,,5.91 nM
CCN(CC)CCNC(=O)c1cc(Cl)c(NC(=O)COc2ccc(Cl)cc2)cc1OC,"viral replication, high-content imaging screen",,cell-based,> 100000 nM
O=[N+]([O-])c1cc(N2[C@@H]3CC[C@H]2COC3)ccc1NCc1ccc(CN2C[C@H](O)[C@@H](O)[C@H](O)[C@H]2CO)cc1,viral replication,USA-WA1/2020,,> 25000 nM
Cc1c(S(=O)(=O)N2CCc3n[nH]cc3C2)cc(C(=O)NCc2c(F)cccc2N2CCCC2)n1C,viral replication,"Huh7.5, WA1/2020",,44 nM
CC(C)=CCc1cc([C@@H]2CC(=O)c3c(O)cc(O)c(CC=C(C)C)c3O2)cc(CC=C(C)C)c1O,viral replication,mNeonGreen reporter,,20200 nM
CSc1ccc2c(c1)C(N1CCN(C)CC1)Cc1ccccc1S2 (stereo not drawn),"viral replication, high-content imaging screen",,cell-based,> 100000 nM
Nc1nc(=O)n([C@@H]2CS[C@H](CO)O2)cc1F,viral replication,Vero,48 h,> 20000 nM
O=c1nc(NO)ccn1[C@@H]1O[C@H](CO)[C@@H](O)[C@H]1O,"qRT-PCR, measured: viral RNA in supernatant","Vero, Washington",,600 ± 300 nM
CC(=O)O[C@H]1CC[C@@]2(C)C(=CC[C@@H]3[C@@H]2CC[C@]2(C)C(c4cccnc4)=CC[C@@H]32)C1,"viral replication, GFP plate reader screen",,cell-based,> 100000 nM
[N-]=[N+]=N[C@]1(CO)O[C@@H](n2ccc(N)nc2=O)[C@@H](F)[C@@H]1O,viral replication,"Vero E6, USA-WA1/2020 nLuc reporter",,> 100000 nM
C[C@H]1COC2=C1C(=O)C(=O)c1c2ccc2c1CCCC2(C)C,"viral replication, plaque reduction",Vero C1008,24 h,700 nM
CC(C)(O)c1ccc2c(c1)C(=CCCN1CCC(O)(c3ccc(Cl)cc3)C(C)(C)C1)c1cccnc1CO2 (stereo not drawn),viral replication,"Huh-7-ACE2, USA-WA1/2020",24 h,1000 nM
COc1c2ccoc2c(OCC=C(C)C)c2oc(=O)ccc12,viral replication,"Calu-3, mNeonGreen reporter",,6400 ± 900 nM
Cc1cccc(/C=N/Nc2cc(N3CCOCC3)nc(OCCc3ccccn3)n2)c1,viral replication,,,420 nM
Cc1cccc(/C=N/Nc2cc(N3CCOCC3)nc(OCCc3ccccn3)n2)c1,viral replication,"Huh-7-ACE2, USA-WA1/2020",24 h,88 nM
CSc1ccc(N(Cc2cc(Cl)cs2)C(=O)Cc2cncc3ccccc23)cc1,viral replication,"Calu-3, Omicron BA.2",,3500 nM
COc1cc(Nc2c(C#N)cnc3cc(OCCCN4CCN(C)CC4)c(OC)cc23)c(Cl)cc1Cl,,"Vero C1008, WIV04",24 h,2450 nM
CC(C)(C)[C@H](NC(=O)C(F)(F)F)C(=O)N1C[C@H]2[C@@H]([C@H]1C(=O)N[C@@H](C[C@@H]1CCNC1=O)C(=O)c1nc3c(F)ccc(F)c3s1)C2(C)C,viral replication,"Vero C1008, JPN/TY/WK-521 (ancestral Wuhan)",,92 nM
O=C1NC2CCCCN2C12CCN(CCCN1c3ccccc3CCc3ccc(Cl)cc31)CC2 (stereo not drawn),"viral replication, high-content imaging screen",BetaCov/Belgium/GHB-03021/2020,cell-based,> 100000 nM
Cn1cnc(Cn2c(=O)[nH]/c(=N\c3cc4cn(C)nc4cc3Cl)n(Cc3cc(F)c(F)cc3F)c2=O)n1,viral replication,"Vero C1008, BA.5",,140 nM
CC(NC(=O)C(=O)NCCN1CCOCC1)C(c1cccs1)N1CCN(c2ccccc2)CC1 (stereo not drawn),"plaque formation, plaque reduction",Vero E6,72 h,> 50000 nM
COc1ccc(F)c2[nH]c(C(=O)N[C@@H](CC(C)C)C(=S)N[C@@H](C[C@@H]3CCNC3=O)C(=O)c3nc4c(F)cccc4s3)cc12,"viral replication, RT-qPCR","VeroE6, WK-521",,340 ± 15 nM
COc1ccc2c(c1)c(CC(=O)O)c(C)n2C(=O)c1ccc(Cl)cc1,"plaque formation, plaque reduction",Vero E6,72 h,> 50000 nM
CCC(CC)COC(=O)[C@H](C)N[P@](=O)(OC[C@H]1O[C@@](C#N)(c2ccc3c(N)ncnn23)[C@H](O)[C@@H]1O)Oc1ccccc1,viral replication,"293T-ACE2, USA-WA1/2020",24 h,7.2 nM
CCC(CC)COC(=O)[C@H](C)N[P@](=O)(OC[C@H]1O[C@@](C#N)(c2ccc3c(N)ncnn23)[C@H](O)[C@@H]1O)Oc1ccccc1,"viral replication, qRT-PCR of viral RNA","Calu-3, Washington",,200 ± 100 nM
O=c1c2ccccc2[se]n1-c1ccccc1,viral replication,Vero E6,96 h,> 100000 nM
Cc1cc(C)c2nc(-c3cnc(NCCCC4CCN(C)CC4)nc3C)[nH]c2c1,"viral replication, GFP plate reader screen",,cell-based,> 25100 nM
N#C[C@@]1(c2ccc3c(N)ncnn23)O[C@H](CO)[C@@H](O)[C@H]1O,infectious virus yield,"Vero C1008, VOC-202012/01","48 h, 50% decrease endpoint",15600 ± 760 nM
CN(C)c1ccc(N(Cc2cc(Cl)cs2)C(=O)Cc2cncc3cccc(O)c23)cc1,nucleocapsid staining,"Caco-2, Omicron BQ.1.1",,40 ± 10 nM
C=CC[C@H](NC(=O)CCl)C(=O)N[C@@H](Cc1c[nH]c2ccccc12)C(=O)NCc1ccccc1,viral replication,"Vero, UC-1074",,320 to 5980 nM
CCc1ccc(NC(=O)c2cc3c(=O)n4ccccc4nc3n2C)cc1,"viral replication, qPCR",Vero E6,,76.2 ± 9.73 nM

# A few entries again:
SMILES,assay,test system,setting,EC50
O=c1nc(NO)ccn1[C@@H]1O[C@H](CO)[C@@H](O)[C@H]1O,"qRT-PCR, measured: viral RNA in supernatant","Vero, Washington",,600 ± 300 nM
CC(=O)O[C@H]1CC[C@@]2(C)C(=CC[C@@H]3[C@@H]2CC[C@]2(C)C(c4cccnc4)=CC[C@@H]32)C1,"viral replication, GFP plate reader screen",,cell-based,> 100000 nM
[N-]=[N+]=N[C@]1(CO)O[C@@H](n2ccc(N)nc2=O)[C@@H](F)[C@@H]1O,viral replication,"Vero E6, USA-WA1/2020 nLuc reporter",,> 100000 nM
C[C@H]1COC2=C1C(=O)C(=O)c1c2ccc2c1CCCC2(C)C,"viral replication, plaque reduction",Vero C1008,24 h,700 nM
CC(C)(O)c1ccc2c(c1)C(=CCCN1CCC(O)(c3ccc(Cl)cc3)C(C)(C)C1)c1cccnc1CO2 (stereo not drawn),viral replication,"Huh-7-ACE2, USA-WA1/2020",24 h,1000 nM
COc1c2ccoc2c(OCC=C(C)C)c2oc(=O)ccc12,viral replication,"Calu-3, mNeonGreen reporter",,6400 ± 900 nM
Cc1cccc(/C=N/Nc2cc(N3CCOCC3)nc(OCCc3ccccn3)n2)c1,viral replication,,,420 nM
